# Measured values from different studies.
# Compare with care: the assays were run in different laboratories. Numbers after ± are the reported error.
# DRD2 long isoform: D(2) dopamine receptor, long isoform (DRD2, Homo sapiens, UniProt P14416)
# Chain of UniProt P14416 (whole entry, looked up): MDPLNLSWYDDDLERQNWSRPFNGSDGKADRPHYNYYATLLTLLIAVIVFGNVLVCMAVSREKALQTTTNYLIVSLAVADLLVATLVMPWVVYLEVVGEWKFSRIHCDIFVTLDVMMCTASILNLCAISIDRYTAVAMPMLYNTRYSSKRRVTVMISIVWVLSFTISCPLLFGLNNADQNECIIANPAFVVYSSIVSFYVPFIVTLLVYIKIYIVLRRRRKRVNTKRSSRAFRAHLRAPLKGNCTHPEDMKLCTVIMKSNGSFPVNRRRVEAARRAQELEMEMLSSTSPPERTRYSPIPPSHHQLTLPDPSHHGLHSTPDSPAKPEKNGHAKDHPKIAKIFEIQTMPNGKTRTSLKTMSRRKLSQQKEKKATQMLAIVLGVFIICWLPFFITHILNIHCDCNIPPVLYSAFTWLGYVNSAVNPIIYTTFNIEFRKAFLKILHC
# DRD2: D(2) dopamine receptor (DRD2, Homo sapiens, UniProt P14416)
Compound,target,test,system,setting,measurement,result
CN1CCN(c2ccc3cnn(Cc4cccc5ccccc45)c3c2)CC1,DRD2 long isoform,"binding, radioligand displacement",HEK293 membranes,"1 h, 37 °C, with: [3H]-raclopride",Ki,1250 ± 214 nM
CC1Cc2ccccc2N1C(=O)CN1CCN(Cc2ccccc2)CC1 (stereo not shown),DRD2,agonist,,,EC50,0.251 nM
Cc1ccc(NS(=O)(=O)c2c(C)[nH]c(C)c2C(=O)N2CCCC2)cc1F,DRD2,,,,IC50,> 100 µM
O=C1CCc2ccc(OCCCCN3CCN(c4cccc5c4ccn5Cc4ccccc4)CC3)cc2N1,DRD2,cell-free assay,,,Ki,20.9 nM
Cc1[nH]c(C)c(S(=O)(=O)Nc2ccc(F)cc2)c1C(=O)N1CCCC1,DRD2,,,,IC50,> 100 µM
CC(C)NCc1ccc(-c2cc(Cl)ccc2Cl)o1,DRD2,"ligand displacement, radioligand",,,Ki,649 nM
CCCn1ccc2c(N3CCN(CCCCOc4ccc5c(c4)NC(=O)CC5)CC3)cccc21,DRD2,"cell-free assay, radioligand",,,Ki,55 nM
CN1CCN(c2cn(S(=O)(=O)c3ccccc3)c3ccccc23)CC1,DRD2 long isoform,"binding, radioligand displacement",HEK293 membranes,"1 h, 37 °C, with: [3H]-raclopride",Ki,532 ± 63 nM
Cc1[nH]c(C)c(S(=O)(=O)NC(C)(C)C)c1C(=O)N1CCCC1,DRD2,,,,IC50,> 100 µM
OCCN1CCN(CCOc2ccccc2-c2ccccc2)CC1,DRD2,"ligand displacement, radioligand",,,Ki,1020 nM

# Excerpt of the above:
Compound,target,test,system,setting,measurement,result
CC(C)NCc1ccc(-c2cc(Cl)ccc2Cl)o1,DRD2,"ligand displacement, radioligand",,,Ki,649 nM
